Results collected from several papers.
Each numbered part is a random draw from the data of one study; scales do not carry over between parts. Several values in a cell are separate wells, animals, samples, runs or records.

Block 1 — read-out: enzyme activity; action: inhibitor; tested at: 20 µM; notes: primary screen
Target: Replicase polyprotein 1ab, main protease (rep, Severe acute respiratory syndrome coronavirus 2, UniProt P0DTD1)
For `O=C1/C(=C/c2ccccc2)C(NC2CCCCC2)c2ccccc21` (centres unmarked), the inhibition was 36.8%.
`COc1ccc(NC(=O)CC2Sc3ncnn3C2=O)cc1` (centres unmarked) has an inhibition of 78.4%.
`COC(=O)C1=C(C)NC(C)=C(C(=O)OC)C1c1ccccc1[N+](=O)[O-]` has an inhibition of 89.5% and 32.2%.

Block 2 — method: protein binding microarray; molecule type: double-stranded DNA, one strand shown; medium: in vitro; tested at: not given; reference: not given; direction: higher = stronger binding
Target: Histone acetyltransferase KAT6A, winged helix 1, GST fusion (KAT6A, Homo sapiens, UniProt Q92794, residues 1-85)
Notes: 8-mer, flanks averaged, mean of 2 arrays, mostly near background
Residues (chain): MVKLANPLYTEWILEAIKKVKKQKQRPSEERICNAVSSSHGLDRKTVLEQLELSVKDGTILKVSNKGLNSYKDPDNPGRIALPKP
`CTCCACGC` has an E-score of 0.156.
For `CTTTGAGA`, the E-score was -0.0778.
The E-score of `ATGGCTTC` is reported as -0.197.
The E-score of `CGCGCGAG` is reported as 0.424.
`ACGCCTCC` gave an E-score of 0.125.
The E-score of `AGCGTTAT` is reported as 0.105.
`AGCTCTAG` has an E-score of -0.0663.
For `AGCAGGGA`, the E-score was -0.22.

Block 3 — read-out: enzyme activity; action: inhibitor; tested at: 20 µM
Target: Replicase polyprotein 1ab, polymerase (rep, Severe acute respiratory syndrome coronavirus 2, UniProt P0DTD1)
`COc1cc2nc(N3CCCN(C)CC3)nc(NC3CCN(Cc4ccccc4)CC3)c2cc1OC` has an inhibition of 13.7%.
The inhibition of `CNc1nc(C)nc(N[C@H]2CCC[C@@H](C(=O)NCc3ccc(C#N)cc3C(F)(F)F)C2)n1` is reported as -3.64%.
For `C[C@]1(Cn2ccnn2)[C@H](C(=O)O)N2C(=O)C[C@H]2S1(=O)=O`, the inhibition was -5.25%.
`Cc1ccc(-n2nc(C(C)(C)C)cc2NC(=O)NCc2cc(F)ccc2Oc2ccc3c(cnn3CCO)c2)cc1` gave an inhibition of 2.73%.
The inhibition of `CC(C)n1nccc1-c1ncccc1COc1cccc(O)c1C=O` is reported as 6.01%.
For `C[C@]12C=CC(=O)C=C1CC[C@@H]1[C@@H]2CC[C@]2(C)OC(=O)CC[C@@H]12`, the inhibition was 4.45%.
`COc1ccc(C(=O)CC2(O)C(=O)Nc3c(Cl)ccc(Cl)c32)cc1` (centres unmarked) gave an inhibition of -10%.
`CC(C)[C@@H]1CC[C@@H](C)C[C@@H]1P(=O)(c1ccccc1)c1ccccc1` gave an inhibition of -7.42%.
For `FC(F)(F)c1ccc(/C=C/c2nc(COc3ccc(CCCCn4ccnn4)cc3)co2)cc1`, the inhibition was -28.2%.
For `O=C(O)c1ccc2nc(-c3cc(Cl)cc(Cl)c3)oc2c1`, the inhibition was -4.59%.
For `CN1[C@@H]2CC[C@H]1CC(OC(=O)N1Cc3ccccc3NC1=O)C2` (some centres unmarked), the inhibition was -2.22%.
The inhibition of `COc1cc(C=O)ccc1O` is reported as -3.42%.
The inhibition of `CNC(=O)c1cccc(NC(=O)N2CCC(Oc3ccccc3Cl)CC2)c1` is reported as -2.71%.
`NC(N)=NCCNS(=O)(=O)c1cccc2cnccc12` gave an inhibition of 5.97%.
With `COC(=O)N1CCN(Cc2cccc(NC(=O)Nc3ccc(C)nc3)c2F)CC1` the inhibition was 3.6%.
`COc1cccc(-c2c(C)n(Cc3c(F)cccc3C(F)(F)F)c(=O)n(C[C@H](NCCCC(=O)O)c3ccccc3)c2=O)c1F` has an inhibition of 2.15%.
The inhibition of `COc1cc(N2CCOCC2)ccc1Nc1ncc(Cl)c(Nc2ccccc2NS(C)(=O)=O)n1` is reported as 4.38%.
For `N#Cc1ccc(-c2csc(NN=C3CCCC3)n2)cc1`, the inhibition was -4.96%.
The inhibition of `CC(=O)Nc1ccc(NC(=S)NC(=O)c2ccc(C(C)(C)C)cc2)cc1` is reported as 0.1%.
`CC1(C)OC[C@@H](COC(=O)CCc2ccc(OC[C@@H](O)CNCCNC(=O)N3CCOCC3)cc2)O1` has an inhibition of -1.06%.
With `CN1C(=O)C(F)=C[C@]2(C)[C@H]3CC[C@]4(C)[C@@H](C(=O)NCc5nc6cccnc6[nH]5)CC[C@H]4[C@@H]3CC[C@@H]12` the inhibition was -3.39%.
The inhibition of `COc1cc(-c2ccc(=O)[nH]n2)ccc1OC(F)F` is reported as -0.18%.
For `C=C1C(=O)O[C@@H]2/C=C(\C)CC/C=C(\C)CC[C@@H]12`, the inhibition was -0.63%.
With `CCN1CCN(C(=O)N[C@@H](C(=O)N[C@@H]2C(=O)N3[C@@H]2SC(C)(C)[C@@H]3C(=O)O)c2ccccc2)C(=O)C1=O` the inhibition was 16.8%.
The inhibition of `NC[C@@H]1O[C@H](C23CC4CC(CC(C4)C2)C3)Cc2c1ccc(O)c2O` is reported as -1.39%.

Block 4 — organism: Vesicular stomatitis virus; read-out: pseudovirus infection; method: FDA-approved drug library screen; tested at: concentration not given; notes: SARS-CoV-2 spike pseudotype; reference: vehicle
For `N.N.[Cl][Pt][Cl]`, the GFP-positive cells was 86.2%.
The GFP-positive cells of `CC(C)[N+]1(C)[C@@H]2CC[C@H]1C[C@@H](OC(=O)C(CO)c1ccccc1)C2.O.[Br-]` (some centres unmarked) is reported as 94.4%.
`NC(N)=O` has a GFP-positive cells of 71.7%.

Block 5 — method: RNA Bind-n-Seq; molecule type: RNA; medium: in vitro; tested at: 1 µM; notes: whole 134-nt RNA, ends assumed; added: 150 mM KCl; reference: input library; direction: higher = stronger binding
Target: Ras GTPase-activating protein-binding protein 1, RRM domain (G3BP1, Homo sapiens, UniProt Q13283)
Chain of UniProt Q13283 (whole entry, looked up): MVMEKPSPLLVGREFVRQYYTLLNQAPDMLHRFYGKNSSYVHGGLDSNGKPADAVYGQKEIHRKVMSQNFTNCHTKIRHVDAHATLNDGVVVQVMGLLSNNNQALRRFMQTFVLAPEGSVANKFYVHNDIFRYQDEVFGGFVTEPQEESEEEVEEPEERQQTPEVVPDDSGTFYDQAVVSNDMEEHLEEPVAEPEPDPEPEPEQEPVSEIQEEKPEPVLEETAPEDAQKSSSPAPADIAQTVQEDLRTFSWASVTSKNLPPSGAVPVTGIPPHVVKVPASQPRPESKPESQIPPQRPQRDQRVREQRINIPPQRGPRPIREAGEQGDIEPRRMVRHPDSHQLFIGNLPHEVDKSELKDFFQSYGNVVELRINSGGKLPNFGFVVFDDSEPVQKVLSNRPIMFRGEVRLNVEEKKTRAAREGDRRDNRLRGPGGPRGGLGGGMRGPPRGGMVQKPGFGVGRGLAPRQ
Shared flanks, not repeated: GGGAGUUCUACAGUCCGACGAUC … UGGAAUUCUCGGGUGUCAAGG
With `UAACUUUAGAGGAGGAUCUGAUGGAUAUGGCAGUGGACGUGUAUUUGGGGAUGGCUAUAAUGGGUAUGGAGGAGGACCUGGAGGUGGCAA` the log2 enrichment was -0.592.
`AGUCCUGUGCUACACAUCGUAUGUACCGAAUCGGGAAAAAGGGAAAAAAAGGGAGGGAAAGUAUUAUGUUACGCCGUUCGGAUCUGCACU` gave a log2 enrichment of 0.755.
`UCAAGUCCUGUGCUACACAUCGUAUGUACCGAAUCGGGAGGGUUUGGGUUUGGGAAAGUAUUAUGUUACGCCGUUCGGAUCUGCACUUCC` gave a log2 enrichment of 0.714.
For `UGUUUAUCCAACAUAUGAUUUUGCCUGCCCCAUAGUUGACAGCAUCGAAGGUGUUACACAUGCCCUGAGAACAACAGAAUACCAUGACAG`, the log2 enrichment was -0.108.
With `CCUGUGCUACACAUCGUAUGUACCGAAUCGGGAAAAAAAGGGUUUUUUUGGGUUUUUGGGAAAGUAUUAUGUUACGCCGUUCGGAUCUGC` the log2 enrichment was -0.255.

Block 6 — method: protein-binding microarray; molecule type: double-stranded DNA, one strand shown; medium: in vitro; tested at: not given; direction: higher = stronger binding
Target: Transcriptional repressor CTCF (CTCF, Homo sapiens, UniProt P49711, residues 1-727, full length assumed)
Chain of UniProt P49711 (whole entry, looked up): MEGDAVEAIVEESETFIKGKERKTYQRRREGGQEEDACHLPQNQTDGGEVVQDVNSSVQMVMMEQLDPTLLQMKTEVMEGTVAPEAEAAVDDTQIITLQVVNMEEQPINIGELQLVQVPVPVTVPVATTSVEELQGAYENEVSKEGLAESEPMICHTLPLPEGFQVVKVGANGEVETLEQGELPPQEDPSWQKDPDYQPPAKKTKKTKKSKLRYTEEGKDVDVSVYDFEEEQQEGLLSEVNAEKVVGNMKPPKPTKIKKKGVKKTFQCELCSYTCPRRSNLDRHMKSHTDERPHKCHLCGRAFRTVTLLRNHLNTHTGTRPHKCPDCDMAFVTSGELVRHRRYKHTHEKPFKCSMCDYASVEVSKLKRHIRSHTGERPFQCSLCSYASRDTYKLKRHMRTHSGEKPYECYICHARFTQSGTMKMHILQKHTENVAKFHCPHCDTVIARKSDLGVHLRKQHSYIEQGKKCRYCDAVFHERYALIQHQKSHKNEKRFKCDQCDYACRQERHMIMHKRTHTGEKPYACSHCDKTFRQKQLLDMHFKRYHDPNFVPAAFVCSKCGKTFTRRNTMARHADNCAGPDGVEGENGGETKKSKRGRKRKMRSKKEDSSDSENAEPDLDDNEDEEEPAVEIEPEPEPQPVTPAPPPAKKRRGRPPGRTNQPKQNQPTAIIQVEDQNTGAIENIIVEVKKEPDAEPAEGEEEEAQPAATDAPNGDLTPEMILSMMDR
Notes: k-mer, scored over probes, only values ≥0.25
`ATTTTTAA` gave an E-score of 0.299.
`ATACACAA` gave an E-score of 0.282.
The E-score of `GGTATTAC` is reported as 0.281.
With `TATAATAA` the E-score was 0.347.
With `AGTTATAT` the E-score was 0.285.
The E-score of `ATAAATAA` is reported as 0.331.
